Measured values of several laboratories.
Every numbered part comes from another study and shows a few of its results, in no order. Changes are numbered by the printed parent chain.

Block 1 — method: protein binding microarray; form: double-stranded DNA, one strand shown; sample: in vitro; concentration: not given; baseline: not given; direction: higher = stronger binding
Target: Histone acetyltransferase KAT6A, winged helix 2, GST fusion (KAT6A, Homo sapiens, UniProt Q92794, residues 85-181)
Setting: 8-mer, flanks averaged, mean of 2 arrays, mostly near background
Residues (chain): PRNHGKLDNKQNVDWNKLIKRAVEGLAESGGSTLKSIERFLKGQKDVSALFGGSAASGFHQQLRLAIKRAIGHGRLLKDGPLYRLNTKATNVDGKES
Strand	E-score
CTGGACTC	-0.01
TCCACGGA	0.217
ACGCGACT	-0.15
AGGCTGTG	0.0386
AGGCAGTG	0.0636
CGACCTCC	0.0344
CACAAGGA	0.0673
TGTCCGAA	0.04
CTAAAGCC	-0.0746
ATGATATG	0.145
GTGCTCAA	0.0549
CTCCCCAG	-0.207
ATCCGTAA	-0.156
AGGAATTG	-0.22
CAACATAC	-0.00857
AGAGCTCT	-0.289
ATGCCCGC	0.12
AATATGGG	0.0377
AATAGGCA	0.0672
CCAGTGTA	0.0571
TCGCTAAA	0.12
AGACAAAG	-0.0112
CCACCCCA	-0.0417
TATCAGAA	0.199
CAGTTTCC	0.0281

Block 2 — method: RNA Bind-n-Seq; form: RNA; sample: in vitro; concentration: 1 µM; setting: whole 134-nt RNA, ends assumed; added: 150 mM KCl; baseline: input library; direction: higher = stronger binding
Target: Ras GTPase-activating protein-binding protein 1, RRM domain (G3BP1, Homo sapiens, UniProt Q13283)
Chain of UniProt Q13283 (whole entry, looked up): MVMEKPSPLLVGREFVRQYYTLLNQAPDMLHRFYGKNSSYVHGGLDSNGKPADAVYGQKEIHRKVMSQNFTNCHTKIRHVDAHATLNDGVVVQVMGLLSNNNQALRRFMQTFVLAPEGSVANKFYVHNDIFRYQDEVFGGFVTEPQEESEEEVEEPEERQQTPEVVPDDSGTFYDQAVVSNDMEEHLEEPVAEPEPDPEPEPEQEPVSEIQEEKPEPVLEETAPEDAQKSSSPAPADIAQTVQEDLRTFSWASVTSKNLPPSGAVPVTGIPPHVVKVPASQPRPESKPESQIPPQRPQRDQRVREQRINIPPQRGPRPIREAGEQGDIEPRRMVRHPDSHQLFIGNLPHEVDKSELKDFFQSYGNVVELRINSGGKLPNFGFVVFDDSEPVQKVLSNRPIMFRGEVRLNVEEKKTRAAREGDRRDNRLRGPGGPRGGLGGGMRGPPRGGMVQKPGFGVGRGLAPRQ
Constant ends, left off below: GGGAGUUCUACAGUCCGACGAUC … UGGAAUUCUCGGGUGUCAAGG
Strand	log2 enrichment
UGCGUGCUUGUGUCCUGGAGCUGGAAGAGCGGCUGAGCACGCAGGAGGGCUUGGUGCAAGAGCUUCAGAAAAAACAGGUGGAAUUGCAGG	-0.501
AAGUCCUGUGCUACACAUCGUAUGUACCGAAUCAAAUUUUUAAACCCAAAUUUAAAAAAGUAUUAUGUUACGCCGUUCGGAUCUGCACUU	-0.282
CUCAAGUCCUGUGCUACACAUCGUAUGUACCGAAUCGGGGUGGGGUGGGUGGGAAAGUAUUAUGUUACGCCGUUCGGAUCUGCACUUCCA	0.00243
CUCAAGUCCUGUGCUACACAUCGUAUGUACCGAAUCGGGGUUGGUUGGUUGGGGAAAGUAUUAUGUUACGCCGUUCGGAUCUGCACUUCC	-0.254
CAAGUCCUGUGCUACACAUCGUAUGUACCGAAUCGGGGCCCGGGGCCCGGGCCCGGAAAGUAUUAUGUUACGCCGUUCGGAUCUGCACUU	-0.721
CUGUGCUACACAUCGUAUGUACCGAAUCGGGGUUUUUUUGGGGAAAGGGGUUUUUUUGGGGAAAGUAUUAUGUUACGCCGUUCGGAUCUG	0.353
AGUCCUGUGCUACACAUCGUAUGUACCGAAUCAAAUUUAAACCCAAACCCCCCCAAAAAAGUAUUAUGUUACGCCGUUCGGAUCUGCACU	-0.16
CAAGUCCUGUGCUACACAUCGUAUGUACCGAAUCGGUUUUUUUGGUGGAAAAAGGAAAGUAUUAUGUUACGCCGUUCGGAUCUGCACUUC	-0.287
GUCCUGUGCUACACAUCGUAUGUACCGAAUCAAAUUUUUAAACCCCCCCAAAUUUAAAAAAGUAUUAUGUUACGCCGUUCGGAUCUGCAC	-0.303
UGGGAGGUGGAUUUUGUUUAUUUUUUUAGCUCAUUUCCAGGGGUGAGAAUUUUUUUUUAAUAUGUGUCAUGAAUAAAGUUGUUUUUGAAA	1.21
GCUUAUGUAGACAUGAGGAAGAUUGGCAGUAGCCGGGGAAUGGUUUCUGCAUACCCUCGACAGCUAGAGUCAUUAAUCCGCUUAGCAGAA	0.108
CCUGUGCUACACAUCGUAUGUACCGAAUCGGAAAAAAAGGGAAAAAAAGGGAAAAAAAGGGAAAGUAUUAUGUUACGCCGUUCGGAUCUG	0.0255
UCCUCAAGUCCUGUGCUACACAUCGUAUGUACCGAAUCGGAGGUGGAAAGGAAAGUAUUAUGUUACGCCGUUCGGAUCUGCACUUCCAGC	-0.231
AGUCCUGUGCUACACAUCGUAUGUACCGAAUCGGGGAAAAAGGAAAAAGGAAAAAGGGAAAGUAUUAUGUUACGCCGUUCGGAUCUGCAC	0.0127

Block 3 — method: RNA Bind-n-Seq; form: RNA; sample: in vitro; concentration: not given; baseline: input RNA pool; direction: higher = stronger binding
Target: RING finger protein unkempt homolog, zinc fingers 1-6, GST-SBP tag (UNK, Homo sapiens, UniProt Q9C0B0, residues 30-357)
Chain of UniProt Q9C0B0 (30-357, looked up): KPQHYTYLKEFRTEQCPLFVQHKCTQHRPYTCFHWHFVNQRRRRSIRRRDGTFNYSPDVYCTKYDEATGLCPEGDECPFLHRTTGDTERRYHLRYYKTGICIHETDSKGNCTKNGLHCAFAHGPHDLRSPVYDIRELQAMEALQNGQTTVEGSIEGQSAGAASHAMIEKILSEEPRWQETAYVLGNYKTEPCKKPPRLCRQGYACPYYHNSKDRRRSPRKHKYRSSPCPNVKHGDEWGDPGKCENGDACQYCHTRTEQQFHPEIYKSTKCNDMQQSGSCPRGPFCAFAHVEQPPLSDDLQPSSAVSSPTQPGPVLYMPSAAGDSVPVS
Setting: RNA with constant flanks, human-mouse chimeric sites, ends assumed
Constant ends, left off below: GGGAGUUCUACAGUCCGACGAUC … CAACAGAGGAUUGAGCAUCA
Strand	bound/input enrichment
GCACUUCUCAAAUACUGGCCAAAGACUCACAGUCCAAAAGAAGUAAUGUUCUUAAAUGAAUUAGAAGAAAUUUUAGAUGUAAUUGAACCAUCAGAAUUUGUGAAGAUCAUGGAGCCUCUU	0.567 ratio
ACUCUUGACUCUUUCCAUCCUCUUCCUUUCCCUCUUGAUCUUCAAGGCCAUGAAUCCCAAAAUAACAGUCUUAGUGGCUAGCACCCACCCAAACUGAGAAUAAAUCCACCCCAGUGUCUC	0.605 ratio
AAUUUCCUGUCAUACUUUGUAGCAAGACACAUCAGACUUACAGAGCACCUGGCCACAUUCUAGGUUUGUGUUAUUUCUAAGCCUUUUAUAUGAUCAAAUGAGAACACUGCUUAACUAAUG	0.158 ratio
AAAGAACCUCUCUCUGAUGAAGAUGAGGAAGACAAUGAUGAUGUUGAACCCAUUUCUGAAUUUCGAUUUGUGCCUAGUGAUAAAUCAGCAUUGGAGGCGAUGUUCACAGCAAUGUGUGAG	0.391 ratio
UAAGUUAUUUUGUACAGCUUUGUAAAUUCUUAACAUUUUUAUAUUGCCAUGUUUAUUUUUUUUAGAUAAUUUGGUUCAUUAAGUACAAAACCAAAUAAAUGAACAUCUUUUUCAGUAAUU	3.5 ratio
GGAAGUACAUUAAUGGAAAUAGAUGGCGACAAAGGCAAGCAGGGCGGGCCCACCUACUACAUAGACACCAAUGCCCUCCGCGUGCCCAGGGAGAACAUGGAGGCCAUCUCACCACUCAAG	0.309 ratio
CCAAUCGUGGAGCAGUACUUGAAGACAAAGAAAAAUUCUAAUAAUUUAAUCAUGAAAUACAUUAGCUGCCGCCUGCUGACACUCAUCAUUAUACUGUUAGCGUGUAUCUACCUGGGCUAU	0.54 ratio
CUUAAUGAUAUUUUGAGUGAAUAAAUGAAGCUAAAAUGUCUGCUUUUGGUACAACACGCAUUAAUAAAAGGUUAAGUAAGUUUUGUUACUGAAGUACUAUUUAACAUCUCAGAAAAAAAC	0.169 ratio
UGUAGUUUCUUGAUUUAGUGGCUGGGCCUUUUCUUUCUUUCCUUUAGGAAAAGCCUAAAGAUUAGGUUGUAAGAAAAACAGAAGCCAUGUUUCGAAGACCUGUGUUAAUUACAGGUAGUC	0.225 ratio
UGUGAACUGUCUCUUGAUUGGGGUCUACAAGAUGACUUUUCCUGGCACAUAUUCCAAAGCAAAGACUUUGUUGCCUGCUGCUUCUUGUCUAAUUUACAGGGAUAUUUAAUUUUGUCAGGU	0.286 ratio
CUGUGUGGCUUACUAAAAUGGCUUGUAAAGAAGUUUUUCCAAGCUGUAACCCAUGCUGUUAUUAUAGUUGCUGCAAAAUGUUCUUCCUGAUAUUGAUGUUUGUUUACAACUGAAGGUCUC	0.108 ratio

Block 4 — method: protein-binding microarray; form: double-stranded DNA, one strand shown; sample: in vitro; concentration: 250 nM; setting: 60-bp whole probe; added: salmon DNA 0.4 mg/ml; baseline: random background probes; direction: higher = stronger binding; constant ends, left off below: GCCTAGCAC … GTCTTGATTCGCTTGACGCTGCTG
Target: Interferon regulatory factor 7, full length, phosphomimetic (IRF7, Homo sapiens, UniProt Q92985, residues 1-503, S101K/S471D/S472D/S475D/S476D/S477D/S483D/S484D/S487D)
Chain of UniProt Q92985 (whole entry, unmodified, looked up): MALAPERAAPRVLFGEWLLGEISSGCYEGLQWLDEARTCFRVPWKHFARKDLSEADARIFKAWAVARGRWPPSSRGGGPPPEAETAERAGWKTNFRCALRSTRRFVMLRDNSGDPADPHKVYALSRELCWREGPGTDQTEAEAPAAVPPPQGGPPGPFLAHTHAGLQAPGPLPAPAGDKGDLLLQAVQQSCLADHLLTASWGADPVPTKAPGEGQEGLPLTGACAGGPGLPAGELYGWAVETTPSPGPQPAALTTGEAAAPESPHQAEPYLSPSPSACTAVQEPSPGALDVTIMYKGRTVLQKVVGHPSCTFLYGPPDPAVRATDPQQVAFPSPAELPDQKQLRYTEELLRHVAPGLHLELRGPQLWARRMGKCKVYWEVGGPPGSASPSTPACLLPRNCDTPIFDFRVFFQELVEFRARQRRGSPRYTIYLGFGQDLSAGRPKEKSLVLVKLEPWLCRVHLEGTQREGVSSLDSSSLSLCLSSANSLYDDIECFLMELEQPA
Strand	log fluorescence [z-score]
TCAAGTTCAGTTCTCTAACTGTGCTAG	0.833
GGCAAAAACATGAACAGACAGTGCTAG	-0.74
GACGATTCCAGTTACGAGACGTGCTAG	0.858
GACGGTATCGGTAACGGGACGTGCTAG	-0.0447
TTAGGTCTCGGAATGGGTTAGTGCTAG	1.87
TCATGTTGCAAATATTGCACTGTGCTA	0.0749
TTTAAATTCTAATTAGAATTGTGCTAG	0.436
GACGGTTTCGGGTCTGGGGACGTGCTA	8.35
TCAAATATATATATTATACTGTGCTAG	0.386
TTGTATTTGTCCCTATTTAAGTGCTAG	2.39
CTTAGCTTGGGTCTGTGCCTGTGCTAG	-0.659
TTAGATATCGGGTTTCGAATAGTGCTA	3.17
TCAGTTTTCTGGTTCCCACTGTGCTAG	1.65
TTAGATTTCAGTGCCGATTAGTGCTAG	0.171
GACGGTCTCAGTATCGAGACGTGCTAG	0.127
TCAGCTTACAATATAAAACTGTGCTAG	0.0424
GACGGTTTCCTTCTCCTAACGTGCTAG	3
GACCGTATCGGTCTCGGGACGTGCTAG	1.04
TCAGTTGTAGGTTTTCTGACTGTGCTA	-0.343
TCAAGCCTAAGGTTTAGGACTGTGCTA	-0.372
AACGGTATCCTACTGCTGACGTGCTAG	-0.153
TTAGGTTTCGGTATCGATTAGTGCTAG	10.9

Block 5 — target: CCNE2, cyclin fold, Cln2 fusion (human); method: yeast growth competition, sequencing; sample: yeast; setting: strong parent motif; baseline: not given; direction: higher = stronger binding
Starting sequence: E2F1 docking peptide (human); PPVKRRLDFETDH
Substitution	normalised enrichment score
V3N	0.0644
D8M	6.1
E10D	5.9
P2K	5.68
R6M	3.14
R5I	0.251
F9A	0.647
L7N	0.181
F9V	0.175
T11E	4.51
R5P	-0.235
E10G	6.3
F9Y	1.37
D8T	6.16
F9K	0.736
F9M	1.74
R5M	0.127
L7Y	0.275
E10I	5.62
K4H	1.68
K4Y	1.05
K4C	5.03
L7R	0.0774
K4R	6.14
L7T	0.0496
